# Results collected from several papers.
# Parts stem from different laboratories: compare values within a part only. Several values in a cell are separate wells, animals, samples, runs or records. pIC50: −log10 of the molar value.

# Block 1
# Cell line: mouse MPNST tumor cells
# Technique: high-content nuclear imaging
# Refers to: cell number
# Concentration: 10 µM
# Time: 12 h
# Notes: mean of 2 replicates
# Reference: plate mean
# Reading: higher = more cells
SMILES,nuclei count
Cc1cc(C)c(NC(=O)C2CC3CCC2C3)c(C)c1 (centres unmarked),3.75 z-score
Nc1nonc1C(=Nc1ccc(F)c(Cl)c1)NO,0.896 z-score
CCCCCNC(=N)N/N=C/c1c[nH]c2ccc(OC)cc12,-4.85 z-score
O=C(CCCc1ccc(-c2ccccc2F)cc1)Nc1ccc(O)cc1,-4.26 z-score
CN/C(=N\CCSCc1nc[nH]c1C)NC#N,-0.0523 z-score and 3.78 z-score
CC(C)(C)c1ccc(C=CC(=O)Nc2ccc3c(c2)OCCO3)cc1,3.36 z-score
COc1cc2ncnc(Nc3ccc(O)c(Br)c3)c2cc1OC,3.9 z-score
Cc1ccc(-c2cc(C(=O)Nc3cccnc3)c3cc(Br)ccc3n2)cc1,0.203 z-score
CC(=O)Oc1ccc(C(c2ccc(OC(C)=O)cc2)c2ccccn2)cc1,-0.241 z-score
C=C1C[C@H]2[C@@H]3C=C(C)C4=CC(=O)CC[C@]4(C)[C@H]3CC[C@]2(C)[C@@]1(OC(C)=O)C(C)=O,2.2 z-score

# Block 2
# Target: Beta-1 adrenergic receptor (ADRB1, Homo sapiens, UniProt P08588)
# Sequence of UniProt P08588 (whole entry, looked up): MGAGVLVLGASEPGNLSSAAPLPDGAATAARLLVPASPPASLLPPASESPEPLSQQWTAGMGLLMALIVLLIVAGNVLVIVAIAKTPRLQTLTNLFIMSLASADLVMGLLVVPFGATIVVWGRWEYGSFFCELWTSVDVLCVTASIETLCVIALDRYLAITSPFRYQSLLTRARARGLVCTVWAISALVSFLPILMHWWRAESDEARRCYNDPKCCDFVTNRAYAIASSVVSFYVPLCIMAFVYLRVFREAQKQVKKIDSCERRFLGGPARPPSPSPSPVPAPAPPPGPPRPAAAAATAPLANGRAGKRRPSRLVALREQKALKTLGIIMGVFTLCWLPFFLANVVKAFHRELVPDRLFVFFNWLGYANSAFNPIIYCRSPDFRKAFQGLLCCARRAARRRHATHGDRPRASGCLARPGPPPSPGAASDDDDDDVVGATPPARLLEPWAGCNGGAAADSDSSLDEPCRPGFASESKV
# Mode: antagonist
SMILES,pIC50
O=C(Nc1nc(-c2ccccc2OC(F)F)cs1)c1cnccn1,≤ 4.00
COc1ccccc1N1CCC(N2C(=O)C3CCCN3C2=O)CC1 (centres unmarked),≤ 4.00
Cc1nc(-c2ccccc2)ccc1C(=O)NC1CCc2[nH]ncc2C1 (centres unmarked),≤ 4.00
COC[C@@]12CC[C@@H](N3CCOCC3)C[C@H]1CCN(c1nccc(NC(C)C)n1)C2,≤ 4.00
COc1ccccc1N1CCN(C(=O)C[C@@H]2O[C@H](CNC(=O)c3ccc(N(C)C)cc3)[C@@H](O)[C@H]2O)CC1,≤ 4.00
CC(Cc1ccccc1)NN (centres unmarked),≤ 4.00
COc1ccccc1CN1C(=O)COC[C@@H]1[C@H](O)c1ccc(NC(=O)CCc2ccccc2)cc1,≤ 4.00
CCN1CCN(CC(O)COc2cccc(CNCCc3cccc(C)n3)c2)CC1 (centres unmarked),≤ 4.00
CN(C)c1cccc(-c2nccc3c(=O)cc(-c4cn[nH]c4)oc23)c1,≤ 4.00

# Block 3
# SMILES: CC(=O)N[C@@H](Cc1c[nH]c2ccccc12)C(=O)N[C@@H](CCC(=O)C=[N+]=[N-])C(=O)OC(C)C
# Species: C57BL/6 CES1-/- mice, EL4 tumour
# Route: subcutaneous
# Dose: 0.3 mg/kg/day DON equivalent
# Time: 5 days
test,system,setting,how to read,metabolite peak intensity
"UPLC-MS/MS metabolomics, refers to: glucose 1-phosphate",EL4 tumour,normalised to tissue mass,,1.43e+07 a.u. and 1.96e+07 a.u. and 2.21e+07 a.u. and 2.71e+07 a.u. and 2.25e+07 a.u. and 1.69e+07 a.u.
"UPLC-MS/MS, refers to: 4-imidazoleacetate",EL4 tumour,,,1.76e+06 a.u. and 1.55e+06 a.u. and 1.2e+06 a.u. and 1.46e+06 a.u. and 1.93e+06 a.u. and 1.63e+06 a.u.
"UPLC-MS/MS, refers to: N1-acetylspermidine",EL4 tumour,,,1.13e+07 a.u. and 1.26e+07 a.u. and 1.83e+07 a.u. and 1.54e+07 a.u. and 6.75e+06 a.u. and 1.58e+07 a.u.
"LC-MS/MS metabolomics, refers to: 3-methoxytyrosine",EL4 tumour,normalised to tissue mass,higher = more metabolite,80800 a.u. and 189000 a.u. and 53300 a.u. and 182000 a.u. and 246000 a.u.
"UPLC-MS/MS, refers to: itaconate","EL4, tumour",normalised to tissue mass,higher = more metabolite,5.81e+08 a.u. and 1.35e+09 a.u. and 5.44e+08 a.u. and 6.72e+08 a.u. and 1.26e+09 a.u. and 4.89e+08 a.u.

# Block 4
# Target: G protein-coupled receptor kinase 6 (GRK6, Homo sapiens, UniProt P43250)
# Sequence of UniProt P43250 (whole entry, looked up): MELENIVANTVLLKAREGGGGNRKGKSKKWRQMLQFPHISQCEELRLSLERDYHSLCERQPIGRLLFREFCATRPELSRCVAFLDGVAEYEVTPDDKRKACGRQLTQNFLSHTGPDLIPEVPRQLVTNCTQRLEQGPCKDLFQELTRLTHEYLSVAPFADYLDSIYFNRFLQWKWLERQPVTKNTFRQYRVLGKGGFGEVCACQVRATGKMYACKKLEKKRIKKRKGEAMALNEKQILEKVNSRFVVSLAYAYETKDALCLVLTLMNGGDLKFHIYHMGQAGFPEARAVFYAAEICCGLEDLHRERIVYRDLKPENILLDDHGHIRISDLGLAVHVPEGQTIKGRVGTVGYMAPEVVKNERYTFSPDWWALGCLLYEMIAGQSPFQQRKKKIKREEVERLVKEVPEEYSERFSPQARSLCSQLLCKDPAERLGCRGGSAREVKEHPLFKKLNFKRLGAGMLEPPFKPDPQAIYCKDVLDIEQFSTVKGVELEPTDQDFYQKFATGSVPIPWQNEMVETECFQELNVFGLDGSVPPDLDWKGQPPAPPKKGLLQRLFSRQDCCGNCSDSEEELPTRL
# Read-out: enzyme activity
# Mode: inhibitor
# Concentration: 0.5 µM
# Reference: control
Structure (SMILES),remaining activity
CCOc1cc2ncnc(Nc3cccc(Br)c3)c2cc1OCC,96%
CCN1/C(=C/C(C)=O)Sc2ccc(OC)cc21,103%
Cc1nc(Nc2ncc(C(=O)Nc3c(C)cccc3Cl)s2)cc(N2CCN(CCO)CC2)n1,101%
CC(=O)O/N=C1/C(c2c(O)[nH]c3cc(Br)ccc23)=Nc2ccccc21,88.5%
O=c1cc(N2CCOCC2)oc2c1ccc1ccccc12,93.8%
CC(C)c1nn(-c2c(Cl)cccc2Cl)c2nc(Cc3ccc(OCCO)cc3)[nH]c(=O)c12,101%
COc1ccc(Cl)cc1NC(=O)Nc1cc(C)nc2ccccc12,105%
COc1ccc(-c2cnc3c(-c4ccsc4)cnn3c2)cc1,99.9%
Cc1ccc(NC(=O)c2ccc(CN3CCN(C)CC3)cc2)cc1Nc1nccc(-c2cccnc2)n1,103%
O=C(Nc1ccc(Cl)cc1)c1ccccc1NCc1ccncc1,101%
C[S+]([O-])c1ccc(-c2nc(-c3ccncc3)c(-c3ccc(F)cc3)[nH]2)cc1 (centres unmarked),102%
Cn1cnc2cc3c(Nc4cccc(Br)c4)ncnc3cc21,107%
CS(=O)(=O)CCNCc1ccc(-c2ccc3ncnc(Nc4ccc(OCc5cccc(F)c5)c(Cl)c4)c3c2)o1,101%
Nc1[nH]nc2nnc(-c3c(-c4ccccc4)nn4ccccc34)cc12,99.3%
Cn1cc(/C=C2\C(=O)Nc3ccc(S(N)(=O)=O)cc32)c2ccccc21,47.2%
COc1cc2ncnc(Nc3ccc(OCc4ccccc4)cc3)c2cc1OC,104%
CC(C)[C@H](CO)Nc1nc(Nc2cccc(Cl)c2)c2ncn(C(C)C)c2n1,98.3%
CN(C)CCCn1cc(C2=C(c3c[nH]c4ccccc34)C(=O)NC2=O)c2ccccc21,72%
O=C1NC(=O)/C(=C/c2ccc3nccnc3c2)S1,97%
CCC(=O)Nc1ccc2ncnc(Nc3cccc(Br)c3)c2c1,97.6%
COc1cc2ncnc(N3CCN(C(=O)Nc4ccc(Oc5ccccc5)cc4)CC3)c2cc1OC,96.4%
COc1cc2ncc(-c3ccccc3)nc2cc1OC,92.8%

# Mixed results
SMILES,cell line,test,setting,how to read,quantity,value
Cn1cncc1[C@@](O)(COc1ccc(C#N)cc1-c1ccc(OC(F)(F)F)cc1)c1ccc(C#N)cc1,HEK293T,high-content imaging,"10 µM, 0 h, 1 normal, negative death, unit not given",reference: untreated growth,GR value,0

# A few entries again (block 4):
Structure (SMILES),remaining activity
Cn1cc(/C=C2\C(=O)Nc3ccc(S(N)(=O)=O)cc32)c2ccccc21,47.2%
COc1cc2ncnc(Nc3ccc(OCc4ccccc4)cc3)c2cc1OC,104%
CC(C)[C@H](CO)Nc1nc(Nc2cccc(Cl)c2)c2ncn(C(C)C)c2n1,98.3%
CN(C)CCCn1cc(C2=C(c3c[nH]c4ccccc34)C(=O)NC2=O)c2ccccc21,72%
O=C1NC(=O)/C(=C/c2ccc3nccnc3c2)S1,97%
